Assay results from different studies.
Several values in a cell are separate wells, animals, samples, runs or records. ± gives the spread as reported.

`C=CC(=O)Nc1cccc(Cn2ncc3cnc(Nc4cnn(CCOC)c4)nc32)c1`: “serum total protein” 50.9 ± 11.8 g/L (Sprague-Dawley rat male, serum; oral, 180 mg/kg, day 28, 28-day subacute toxicity).
For `c1cc([C@H]2CCC[C@@]3(C2)OOC2(O3)C3CC4CC(C3)CC2C4)ccc1OCCN1CCOCC1` (mixture of isomers), the microsomal CLint was 21.6 µL/min/mg (metabolic stability; human, liver microsomes).
`C=C/C=C/C[C@@H](C)[C@@H](O)[C@H]1C(=O)N[C@@H](CC)C(=O)N(C)CC(=O)N(C)[C@@H](CC(C)C)C(=O)N[C@@H](C(C)C)C(=O)N(C)[C@@H](CC(C)C)C(=O)N[C@@H](C)C(=O)N[C@H](C)C(=O)N(C)[C@@H](CC(C)C)C(=O)N(C)[C@@H](CC(C)C)C(=O)N(C)[C@@H](C(C)C)C(=O)N1C`: “plasma Cl- level” 101 ± 1 mmol/L (Wistar Kyoto rat, male, plasma; ip, 0.5 mg/kg/day, day 28, at sacrifice).
For `CCN1CC2(COC)C(O)CC(OC)C34C5CC6(O)C(OC)C(O)C(O)(C5C6OC(=O)c5ccccc5)C(C(OC)C23)C14` (centres unmarked), the MRT(0-t) was 5.09 ± 0.218 h (Sprague-Dawley rat, plasma; oral, dose not given, with H in PCW extract).
`N#[11C]c1ccc(-c2csc(NN=C3CCCC3)n2)cc1`: “uptake in adrenal gland” 3.01 ± 1.22 %ID/g (C57BL/6 mouse, male; intravenous, 3 MBq, 60 min).
For `C/C(=N\OCCCN1CCCCC1)c1ccc(C(F)(F)F)cc1`, the AUC(0-t) was 25300 ± 8520 ng·h/mL (mouse, plasma; oral, 100 mg/kg once daily, day 1).
Under plasma stability, `CC(=O)NCCCC[C@@H]1NC(=O)[C@H](Cc2c[nH]c3c(C)cccc23)NC(=O)[C@H]([C@@H](C)O)NC(=O)[C@H](CC(N)=O)NC(=O)[C@@H](NC(C)=O)C(C)(C)SSC(C)(C)[C@@H](C(=O)N[C@@H](Cc2ccc(OCCN)cc2)C(=O)N[C@@H](Cc2ccc3ccccc3c2)C(=O)NC2(C(=O)N[C@@H](CCC(=O)O)C(=O)N[C@@H](CC(N)=O)C(=O)N[C@@H](Cc3cccnc3)C(=O)N(C)CC(N)=O)CCOCC2)NC1=O` is recorded as “stable” (plasma; up to 16 h, 37 °C).
With `O=C1NC2(CC2)COc2ncc(F)cc2[C@H]2COCCN2c2ccn3ncc1c3n2` the APTT was 14.1 ± 1.1 s (Sprague-Dawley rats, female, blood; oral, 5 mg/kg/day, end of recovery, 4-week subacute toxicity).
The tissue uptake of `CC[C@H](C)[C@H](NC(=O)[C@H](CCCCN)NC(=O)CNC(=O)[C@H](CC(C)C)NC(=O)[C@H](Cc1ccccc1)NC(=O)[C@H](CCCCN)NC(=O)[C@H](CO)NC(=O)[C@H](Cc1ccccc1)NC(=O)[C@H](Cc1c[nH]c2ccccc12)NC(=O)[C@H](CCC(N)=O)NC(=O)[C@@H](NC(=O)[C@H](Cc1ccccc1)NC(=O)CCCCCNC(=O)CN1CCN(CC(=O)O)CCN(CC(=O)O)CCN(CC(=O)O)CC1)C(C)C)C(=O)N[C@@H](CCC(=O)O)C(=O)N1CCC[C@H]1C(=O)N[C@@H](CC(=O)O)C(=O)N[C@H](C(=O)N[C@@H](CO)C(=O)N[C@@H](CCC(N)=O)C(=O)N[C@H](C(=O)N[C@@H](CCC(N)=O)C(=O)N[C@@H](CC(=O)O)C(=O)N1CCC[C@H]1C(=O)N[C@@H](CC(N)=O)C(=O)N[C@@H](CC(=O)O)C(=O)N[C@@H](CCC(N)=O)C(=O)N[C@@H](Cc1ccc(O)cc1)C(=O)N[C@@H](CCC(=O)O)C(=O)N1CCC[C@H]1C(=O)N[C@@H](Cc1ccccc1)C(=O)O)C(C)C)C(C)C` [copper-64 labelled] is reported as 2.73 ± 0.3 %ID/g (C57BL/6 mice, male, tumour-free, heart; 24 h).
`CC(CCC(=O)NCC(=O)O)C1CCC2C3CCC4CC(OC5OC(C(=O)O)C(O)C(O)C5O)CCC4(C)C3CC(O)C12C` (centres unmarked) has a plasma concentration of 32.3 ng/mL (human women; dose not given, SLCO1B1 *14/*35).
`Cc1nnc(-c2ccc(CC(=O)NCCCC[C@H](NC(=O)c3ccc(OCc4ccc(B(O)O)cc4)c(-c4nc5ccccc5c(=O)[nH]4)c3)C(=O)NCC(=O)NCC(=O)NCC(=O)N[C@@H](Cc3ccccc3)C(=O)N[C@@H](Cc3ccccc3)C(=O)O)cc2)nn1` gave a remaining compound of 78.7% (UPLC-MS/MS; human serum; 100 µM, 3.5 h, 37 °C).
`CC[C@H](C)[C@H](NC(=O)[C@H](Cc1ccc(O)cc1)NC(=O)[C@@H](NC(=O)[C@H](CCCNC(=N)N)NC(=O)[C@@H](N)CC(=O)O)C(C)C)C(=O)N[C@@H](Cc1c[nH]cn1)C(=O)N1CCC[C@H]1C(=O)O`: toxicity “not toxic” (Sprague-Dawley rat; sc, 10 mg/kg/day, 28 days).
For `CSCC[C@H](NC(=O)CNC(=O)[C@H](CCCCN)NC(=O)[C@H](CC(C)C)NC(=O)[C@@H]1CCCN1C(=O)[C@H](CO)NC(=O)[C@H](Cc1c[nH]cn1)NC(=O)[C@H](Cc1c[nH]c2ccccc12)NC(=O)[C@H](CCCNC(=N)N)NC(=O)[C@H](CC(C)C)NC(=O)[C@H](CCCNC(=N)N)NC(=O)[C@H](Cc1c[nH]c2ccccc12)NC(=O)[C@H](CS)NC(=O)CCCCCNC(=O)CN1CCN(CC(=O)O)CCN(CC(=O)O)CCN(CC(=O)O)CC1)C(=O)O` [copper-64 labelled], the tissue uptake was 1.2 %ID/g (ex vivo biodistribution; BALB/c nude mice, bone; intravenous, dose not given, 2 h, Huh-7 tumour-bearing).
With `COc1ccc(CNc2ccc3c(c2)S(=O)(=O)C=C3)cc1` the CD45+ cells was 54.3% (flow cytometry; male C57BL/6 mice, spleen; i.p., 10 mg/kg, 8 days; baseline: splenocytes).
`CC(C)[C@@H]1NC(=O)CNC(=O)[C@H](CC(N)=O)NC(=O)[C@H](CCCNC(=N)N)NC(=O)[C@H](Cc2ccc(O)cc2)NC(=O)[C@H](C(C)C)NC(=O)[C@@H](NC(=O)[C@@H](NC(=O)[C@H](CC(N)=O)NC(=O)[C@H](Cc2c[nH]c3ccccc23)NC(=O)[C@H](C)NC(=O)[C@H](Cc2ccccc2)NC(=O)CNC(=O)[C@H](CCCCN)NC(=O)[C@H](Cc2ccccc2)NC(=O)[C@H](Cc2ccccc2)NC(=O)[C@H](CCCCN)NC(=O)OCC2c3ccccc3-c3ccccc32)C(C)C)CSSC[C@@H](C(=O)N[C@@H](Cc2c[nH]cn2)C(=O)N[C@@H](CCCNC(=N)N)C(=O)N[C@@H](CCCNC(=N)N)C(=O)N[C@@H](C)C(=O)N[C@@H](CC(N)=O)C(N)=O)NC(=O)[C@H](C(C)C)NC(=O)[C@H](CCCNC(=N)N)NC1=O` has an eosinophils of 2.52 ± 0.2% (ICR mice, blood; intraperitoneal, 10 mg/kg, day 5).
`CSCC[C@H](N)C(=O)N[C@@H](C)C(=O)N[C@@H](CCCNC(=N)N)C(=O)N[C@@H](CCCNC(=N)N)C(=O)N[C@@H](CC(=O)O)C(=O)N[C@@H](CCCCN)C(=O)N[C@H](C(=O)N[C@@H](CC(=O)O)C(=O)N[C@@H](Cc1ccccc1)C(=O)N[C@@H](C)C(=O)N[C@@H](CCCNC(=N)N)C(=O)N[C@@H](CCCNC(=N)N)C(=O)N[C@@H](CCCNC(=N)N)C(=O)N[C@@H](CCCNC(=N)N)C(=O)NCCCCCC(=O)NCCCCC(NC(=O)CCCCCNC(=O)[C@H](CCCNC(=N)N)NC(=O)[C@H](CCCNC(=N)N)NC(=O)[C@H](CCCNC(=N)N)NC(=O)[C@H](CCCNC(=N)N)NC(=O)[C@H](C)NC(=O)[C@H](Cc1ccccc1)NC(=O)[C@H](CC(=O)O)NC(=O)[C@@H](NC(=O)[C@H](CCCCN)NC(=O)[C@H](CC(=O)O)NC(=O)[C@H](CCCNC(=N)N)NC(=O)[C@H](CCCNC(=N)N)NC(=O)[C@H](C)NC(=O)[C@@H](N)CCSC)[C@@H](C)O)C(=O)NCCCCC(NC(=O)C(CCCCNC(=O)CCCCCNC(=O)[C@H](CCCNC(=N)N)NC(=O)[C@H](CCCNC(=N)N)NC(=O)[C@H](CCCNC(=N)N)NC(=O)[C@H](CCCNC(=N)N)NC(=O)[C@H](C)NC(=O)[C@H](Cc1ccccc1)NC(=O)[C@H](CC(=O)O)NC(=O)[C@@H](NC(=O)[C@H](CCCCN)NC(=O)[C@H](CC(=O)O)NC(=O)[C@H](CCCNC(=N)N)NC(=O)[C@H](CCCNC(=N)N)NC(=O)[C@H](C)NC(=O)[C@@H](N)CCSC)[C@@H](C)O)NC(=O)CCCCCNC(=O)[C@H](CCCNC(=N)N)NC(=O)[C@H](CCCNC(=N)N)NC(=O)[C@H](CCCNC(=N)N)NC(=O)[C@H](CCCNC(=N)N)NC(=O)[C@H](C)NC(=O)[C@H](Cc1ccccc1)NC(=O)[C@H](CC(=O)O)NC(=O)[C@@H](NC(=O)[C@H](CCCCN)NC(=O)[C@H](CC(=O)O)NC(=O)[C@H](CCCNC(=N)N)NC(=O)[C@H](CCCNC(=N)N)NC(=O)[C@H](C)NC(=O)[C@@H](N)CCSC)[C@@H](C)O)C(N)=O)[C@@H](C)O` (some centres unmarked) — result for “mean tissue distribution”: 0.94% (C57BL/6 mouse female, spleen; dose not given, 3 h; baseline: total).
`O=C(CN1CCN(CC(=O)NCP(=O)([O-])[O-])CCN(CC(=O)NCP(=O)([O-])[O-])CCN(CC(=O)NCP(=O)([O-])[O-])CC1)NCP(=O)([O-])[O-].[Gd+3]`: “mean residence time” 49 min (Sprague-Dawley rats, blood; intravenous, 35 µmol/kg, two-compartment model, with: GdDTPA 68 µmol/kg co-injected).
For `COc1cnc2cccc(N3CCc4c(cc(Cn5ccnc5)cc4-c4cn(C)nc4C(F)(F)F)C3=O)c2c1`, the body weight was 21 g and 20.1 g and 22.2 g and 21.3 g and 22.4 g (BALB/c nude mice, MV4-11 xenograft; intraperitoneal, 50 mg/kg, day 28).
`CN1Cc2cc(Cl)ccc2-n2c(nnc2C2CCN(c3cccc(F)n3)CC2)C1` has a concentration of 1.87 ng/mL (male Sprague-Dawley rat, plasma; intravenous, 0.03 mg/kg, 1 h).
The t1/2 of `C#Cc1c(F)ccc2cc(O)cc(-c3ncc4c(N5CC6CCC(C5)N6C(=O)OC(C)OC(=O)C(C)(C)C)nc(OC[C@@]56CCCN5C[C@H](F)C6)nc4c3F)c12` (some centres unmarked) is reported as 14.4 min (item: prodrug; mouse whole blood; 1 µM).

A few entries again:
`C=CC(=O)Nc1cccc(Cn2ncc3cnc(Nc4cnn(CCOC)c4)nc32)c1`: “serum total protein” 50.9 ± 11.8 g/L (Sprague-Dawley rat male, serum; oral, 180 mg/kg, day 28, 28-day subacute toxicity).
For `c1cc([C@H]2CCC[C@@]3(C2)OOC2(O3)C3CC4CC(C3)CC2C4)ccc1OCCN1CCOCC1` (mixture of isomers), the microsomal CLint was 21.6 µL/min/mg (metabolic stability; human, liver microsomes).
